# Experimental data of several laboratories.
# Parts stem from different laboratories: compare values within a part only.
# Chain of UniProt Q9SV15 (228-325, looked up): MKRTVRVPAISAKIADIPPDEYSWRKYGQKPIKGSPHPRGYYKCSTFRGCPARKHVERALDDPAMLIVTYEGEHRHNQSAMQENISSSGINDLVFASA

# Series 1
# Target: Phosphate system positive regulatory protein PHO4, full length, GST-tagged (PHO4, Saccharomyces cerevisiae, UniProt P07270, residues 1-312)
# Method: competition protein-binding microarray
# Molecule type: double-stranded DNA, one strand shown
# Sample: in vitro
# Tested at: 2 µM
# Notes: whole 60-bp probe, lowest competitor level
# Added: Cbf1 competitor, 0.05 µM
# Reading: higher = stronger binding
# Residues (chain): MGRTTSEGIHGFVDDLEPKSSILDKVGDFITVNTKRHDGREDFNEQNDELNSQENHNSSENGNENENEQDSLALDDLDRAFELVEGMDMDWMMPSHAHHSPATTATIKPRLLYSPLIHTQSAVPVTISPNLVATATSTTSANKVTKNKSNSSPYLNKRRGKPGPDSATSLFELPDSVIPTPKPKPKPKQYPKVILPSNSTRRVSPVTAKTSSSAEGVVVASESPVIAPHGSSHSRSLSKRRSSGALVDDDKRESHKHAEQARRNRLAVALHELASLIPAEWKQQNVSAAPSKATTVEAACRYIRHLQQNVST
Oligonucleotide,fluorescence intensity [a.u.]
ACCGCTGAGGCAAGTACCGTGCAAAATGATGTGAGTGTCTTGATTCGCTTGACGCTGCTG,6100
CGTCCTAGTGATTGGTACGTGGGTGCCATGAGGAAGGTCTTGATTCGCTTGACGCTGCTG,8890
CTTTCCCGATCTTGACGAGTGGGTGTAGCACATTTGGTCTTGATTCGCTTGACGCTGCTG,4190
CGGGGTTAAGTTTTTCACGTGGTGTGCTTGCAGCAGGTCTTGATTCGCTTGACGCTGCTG,14400
AAATTACTAAGTTGATTGGTGGGTGACGCCGTATGAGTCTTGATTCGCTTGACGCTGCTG,3770
CTTCTGTAAATTTGACCTGTGGGTGGACGCGCCCCGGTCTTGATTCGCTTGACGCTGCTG,4340
CTTTCCCGATCTTGAACTGTGGGTGTAGCACATTTGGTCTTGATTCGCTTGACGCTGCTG,4270
GATAATTCTGTCCTTCACGTGGTCGAAACCGGTTATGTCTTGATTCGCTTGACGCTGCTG,16300

# Series 2
# Target: TATA-box-binding protein 1 (TBP1, Arabidopsis thaliana, UniProt P28147, residues 1-200, full length assumed)
# Method: protein-binding microarray
# Molecule type: double-stranded DNA, one strand shown
# Sample: in vitro
# Tested at: not given
# Notes: k-mer, scored over probes, only values ≥0.25
# Reading: higher = stronger binding
# Residues (chain): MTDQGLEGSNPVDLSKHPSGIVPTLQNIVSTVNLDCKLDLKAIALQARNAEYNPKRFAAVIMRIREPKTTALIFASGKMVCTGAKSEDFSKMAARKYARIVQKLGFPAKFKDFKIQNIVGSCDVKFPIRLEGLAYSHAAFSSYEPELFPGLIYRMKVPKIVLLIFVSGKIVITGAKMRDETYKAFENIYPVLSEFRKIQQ
Oligonucleotide,E-score
CATTTAA,0.397
TAATCTA,0.273
AAAGATA,0.267
ATAAATC,0.367
TATTTGA,0.274
ATATTGG,0.335
ATAATGG,0.294

# Series 3
# Target: Replicase polyprotein 1ab, nsp13 helicase (rep, Severe acute respiratory syndrome coronavirus 2, UniProt P0DTD1)
# Mode: inhibitor
# Tested at: 20 µM
Compound,inhibition
Cc1ccc(-c2ccc(C)cn2)nc1,-3.39%
Cc1cc(C)cc(C(=O)N(C)[C@H](Cc2ccc(-c3ccccc3)cc2)C(=O)N[C@@H](Cc2c[nH]c3ccccc23)C(=O)O)c1,37.4%
O=C1CC2(CCCC2)CC(=O)N1CCCCNCC1COc2ccccc2O1 (stereo not drawn),3.89%
Cc1ccc(-n2nc(C(C)(C)C)cc2NC(=O)Nc2ccc(OCCN3CCOCC3)c3ccccc23)cc1,9.39%
N[C@@H](C(=O)O)[C@@H](OCc1ccccc1)C(=O)O,2.97%
NC1=NCCN1CC(=O)O,8%
Cc1c(O)c(=O)ccn1C,8.38%
CC(=O)N[C@@H](CC(C)C)C(=O)O,3.02%
N#Cc1c(-c2ccccc2)cc(-c2cc(Br)ccc2O)[nH]c1=O,10.2%
N=C1CCCN1Cc1[nH]c(=O)[nH]c(=O)c1Cl,10.1%
CS(=O)(=O)CS(=O)(=O)OCCCl,6.03%
COc1ccc2c(c1)/C(=C/c1cnc[nH]1)C(=O)N2,12.7%
O=C(O)c1ccc2c(c1)nc(Nc1cccc(Cl)c1)c1ccncc12,9.62%
Oc1ccc([C@H]2COc3cc(O)ccc3C2)cc1,6.75%
COc1ccc(S(=O)(=O)N2CCC[C@H]2C(=O)Nc2cc(C)cc(C)c2)cc1,0.94%
O=C(O)C(O)Cc1ccc(O)c(O)c1 (stereo not drawn),45.3%
CN1C(C(=O)Nc2ccccn2)=C(O)c2sccc2S1(=O)=O,4.98%
COc1ccc2nc(SCc3ncc(C)c(OC)c3C)[nH]c2c1,-2.33%
O=C(Nc1ccc(C(=O)O)c(O)c1)c1ccccc1,5.66%
N#C/C(=C1/SC[C@@H](c2ccc(Cl)cc2Cl)S1)n1ccnc1,0.32%
O=C(Oc1ccc([N+](=O)[O-])cc1)N1CCC(C(O)(c2ccc3c(c2)OCO3)c2ccc3c(c2)OCO3)CC1,5.06%
O=c1[nH]c(=O)n([C@H]2C[C@H](O)[C@@H](CO)O2)cc1/C=C/Br,0.46%
N=C(NCc1ccc(Cl)cc1)SCCCc1c[nH]cn1,-0.29%
COc1ccc([C@@H]2Sc3ccccc3N(CCN(C)C)C(=O)[C@@H]2OC(C)=O)cc1,5.43%
Cc1ccc(/C=C2\CNC/C(=C\c3ccc(C)cc3)C2=O)cc1,3.98%

# Series 4
# Target: RING finger protein unkempt homolog, zinc fingers 1-6, SBP tag (UNK, Homo sapiens, UniProt Q9C0B0, residues 30-357)
# Chain of UniProt Q9C0B0 (30-357, looked up): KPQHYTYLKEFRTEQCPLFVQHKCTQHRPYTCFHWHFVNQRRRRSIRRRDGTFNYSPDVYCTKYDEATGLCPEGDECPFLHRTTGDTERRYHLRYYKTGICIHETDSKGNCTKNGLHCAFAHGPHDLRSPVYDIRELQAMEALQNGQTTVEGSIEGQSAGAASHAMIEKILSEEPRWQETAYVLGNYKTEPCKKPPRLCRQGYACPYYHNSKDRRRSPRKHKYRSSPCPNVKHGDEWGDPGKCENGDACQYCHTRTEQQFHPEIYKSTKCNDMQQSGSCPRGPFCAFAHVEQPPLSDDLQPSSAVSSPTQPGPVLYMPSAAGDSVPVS
# Method: RNA Bind-n-Seq
# Molecule type: RNA
# Sample: in vitro
# Tested at: 100 nM
# Notes: RNA with constant flanks, vertebrate orthologous sites, ends assumed
# Relative to: input RNA pool
# Reading: higher = stronger binding
Oligonucleotide,bound/input enrichment
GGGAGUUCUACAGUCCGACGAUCCCCUCAACUUGUUCUAGCUUGUGAUCCUUCAGAGUUGGAUCAGGCGUUAGUUCUAGGUACUAGAAAUGUUCAUUUCCCUAUCGCCAUUGAUCAGAGACAAAUAAUUAAAAACCAGAAAUACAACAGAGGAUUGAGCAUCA,0.811 ratio
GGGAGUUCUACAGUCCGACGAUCAGCAACCCAAGGAUUCAGGACUGGUUUUACAAAUAUCCCAAGUAGAUAUGGAACUAACAGUAGAAUUGGACAACCAAGACCAUGAUGUACUAUAAUUUAAUUUAUUUUUAUGAGGAAUAUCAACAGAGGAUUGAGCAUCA,0.804 ratio
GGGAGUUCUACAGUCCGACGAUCGGGUGGCCGGUGGGGGAAUCCCAUGCCCUGACCUUGCCUCCCCUCCCUGCCACCCGCUCCUAGUUAUUAUUUUUUUUUUAAACCACCAUGUGAUUAAGGUCGGCGCUGCCUCCGACCCACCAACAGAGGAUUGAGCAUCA,5.72 ratio
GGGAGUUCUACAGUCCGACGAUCAUUUACACUAAUACUGAAGUUGCAGUUAAAAGGAUAUCCAAGGUGAUGAUAAAGUGUGUGUUGGUAGUUACUAAAAGAACUUUAGCUGUUACUGCCUUGUAUUUCUAUCCCUUGUUUCAGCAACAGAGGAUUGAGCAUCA,0.277 ratio
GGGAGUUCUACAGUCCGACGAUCUUUUGUUUGUUUUGCACAUGACAGUGUGUGUAUUGAUCUGAGGAAGGAGGAGGGUUGCUGGCACAGUUGCCUUCCAGUGCACCCCAGCCUCACCACCCCAGCUGGUAUCUUUGCCACGUUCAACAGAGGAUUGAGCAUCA,0.214 ratio
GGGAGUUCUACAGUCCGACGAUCGCCUGUUCUUUUGCUCUUCAGUGGAAGAGAUAAAUUGGGAAACACUGUCUUCUUUUUAUAGUUUGUUUCUAAAUUAUGACCAAAAAAAUAUUUUGCUAUUUCUUUCUUUAUAUAUGGACACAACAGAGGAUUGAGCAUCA,0.658 ratio
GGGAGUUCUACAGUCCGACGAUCAAUUGAACAAAAACGUUUCCACUGGGUUUCGCCUGUAAGAAAAAAAUGCACCCAAGCACAUAGAGCUUUUUAAUAGCACUAACCAAUGCCUUUUUAGAUGUAUUUUUGAUGUAUAUAUCUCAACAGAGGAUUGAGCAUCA,0.663 ratio
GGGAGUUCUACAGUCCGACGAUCACCCCGAUUUUAGAUGUGAUAUCUAGGCUUUCAUUCCAGUUUGUUUUGUCUUUUCUUGUUUAGAUAACCAACCUUUUAAAUUCUUGCAUUUUAGUAAGAAAGCUACCUUUUUAUGGAUGUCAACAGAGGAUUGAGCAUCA,0.703 ratio

# Further values, each from its own experiment
# WRKY33 C-terminal DNA-binding domain: Probable WRKY transcription factor 33, C-terminal DNA-binding domain (WRKY33, Arabidopsis thaliana, UniProt Q8S8P5, residues 346-449)
# Chain of UniProt Q8S8P5 (346-449, looked up): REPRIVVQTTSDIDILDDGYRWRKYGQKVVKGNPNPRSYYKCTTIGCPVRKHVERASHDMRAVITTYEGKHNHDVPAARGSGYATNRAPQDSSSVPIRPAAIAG
# Chain of UniProt Q8S8P5 (169-264, looked up): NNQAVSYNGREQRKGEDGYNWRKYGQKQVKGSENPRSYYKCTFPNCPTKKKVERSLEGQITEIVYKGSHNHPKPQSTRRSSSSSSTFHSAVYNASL
Molecule,tested on,test,system,setting,scale,measurement,value
AAAAAACTACAACCTGCGCGGTGGTCAAAA,WRKY33 C-terminal DNA-binding domain,DNA-protein interaction ELISA,"double-stranded DNA, one strand shown, in vitro, bacterial lysate","not given, whole dsDNA probe, crude lysate protein","relative to: highest signal in screen, higher = stronger binding",relative absorbance,37 % of maximum
COc1cnc(NS(=O)(=O)c2ccc(N)cc2)nc1,HEK-293T,"pseudovirus infection, FDA-approved drug library screen",VSV pseudotyped with SARS-CoV-2 spike,"10 µM, 16 h",relative to: vehicle-treated,GFP-positive cells,102%
AAAAAATATGCTACTCCACCTTGATGAAAA,WRKY33 C-terminal DNA-binding domain,DNA-protein interaction ELISA,"double-stranded DNA, one strand shown, in vitro, bacterial lysate","not given, whole dsDNA probe, crude lysate protein","relative to: highest signal in screen, higher = stronger binding",relative absorbance,34.1 % of maximum
COc1ccc2nc(S)[nH]c2c1,"Replicase polyprotein 1ab, main protease (rep, Severe acute respiratory syndrome coronavirus 2, UniProt P0DTD1)","enzyme activity, inhibitor",,"20 µM, hit confirmation, no DTT",,inhibition,81.4%
AAAAAATTCCGCGTGTATGTGTACGTAAAA,"Probable WRKY transcription factor 11, DNA-binding domain (WRKY11, Arabidopsis thaliana, UniProt Q9SV15, residues 228-325)",DNA-protein interaction ELISA,"double-stranded DNA, one strand shown, in vitro, bacterial lysate","not given, whole dsDNA probe, crude lysate protein","relative to: highest signal in screen, higher = stronger binding",relative absorbance,16.4 % of maximum
AAAAAAATCCGATCGATGCATATATAAAA,"Probable WRKY transcription factor 33, N-terminal DNA-binding domain (WRKY33, Arabidopsis thaliana, UniProt Q8S8P5, residues 169-264)",DNA-protein interaction ELISA,"double-stranded DNA, one strand shown, in vitro, bacterial lysate","not given, whole dsDNA probe, crude lysate protein","relative to: highest signal in screen, higher = stronger binding",relative absorbance,20.8 % of maximum

# A few entries again (series 2):
Oligonucleotide,E-score
CATTTAA,0.397
TAATCTA,0.273
AAAGATA,0.267
ATAAATC,0.367
TATTTGA,0.274
ATATTGG,0.335
ATAATGG,0.294
